{"data": "Published values from different studies", "ATP2A2": "ATP2A2 (Sus scrofa, UniProt P11607)", "Melanocortin receptor 4": "Melanocortin receptor 4 (Mus musculus, UniProt P56450)", "GPBAR1": "G-protein coupled bile acid receptor 1 (GPBAR1, Homo sapiens, UniProt Q8TDU6)", "P2RY4": "P2Y purinoceptor 4 (P2RY4, Homo sapiens, UniProt P51582)", "CHRM1": "Muscarinic acetylcholine receptor M1 (CHRM1, Homo sapiens, UniProt P11229)", "note": "± marks the error that the study gave.", "sequence of UniProt P11229 (whole entry, looked up)": "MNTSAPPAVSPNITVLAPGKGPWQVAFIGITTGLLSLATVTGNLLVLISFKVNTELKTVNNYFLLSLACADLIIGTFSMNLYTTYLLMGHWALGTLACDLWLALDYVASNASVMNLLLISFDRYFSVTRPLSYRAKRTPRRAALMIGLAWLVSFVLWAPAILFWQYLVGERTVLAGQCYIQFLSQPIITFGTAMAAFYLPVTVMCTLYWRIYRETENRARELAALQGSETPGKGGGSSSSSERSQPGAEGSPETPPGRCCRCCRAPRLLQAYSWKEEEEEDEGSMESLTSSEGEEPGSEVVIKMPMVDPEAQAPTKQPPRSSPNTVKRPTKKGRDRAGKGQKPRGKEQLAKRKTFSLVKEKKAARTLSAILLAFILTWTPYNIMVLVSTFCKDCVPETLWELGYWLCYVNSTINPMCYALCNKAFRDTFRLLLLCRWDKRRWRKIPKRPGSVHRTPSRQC", "sequence of UniProt P56450 (whole entry, looked up)": "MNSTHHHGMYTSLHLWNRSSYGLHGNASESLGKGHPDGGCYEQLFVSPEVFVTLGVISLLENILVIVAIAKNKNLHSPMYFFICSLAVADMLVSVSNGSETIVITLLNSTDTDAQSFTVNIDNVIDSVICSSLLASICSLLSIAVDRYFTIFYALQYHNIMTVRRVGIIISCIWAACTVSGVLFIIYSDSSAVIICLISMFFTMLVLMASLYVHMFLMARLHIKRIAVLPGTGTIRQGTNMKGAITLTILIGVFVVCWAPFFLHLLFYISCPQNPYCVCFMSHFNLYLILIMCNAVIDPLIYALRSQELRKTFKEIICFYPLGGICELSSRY", "sequence of UniProt P51582 (whole entry, looked up)": "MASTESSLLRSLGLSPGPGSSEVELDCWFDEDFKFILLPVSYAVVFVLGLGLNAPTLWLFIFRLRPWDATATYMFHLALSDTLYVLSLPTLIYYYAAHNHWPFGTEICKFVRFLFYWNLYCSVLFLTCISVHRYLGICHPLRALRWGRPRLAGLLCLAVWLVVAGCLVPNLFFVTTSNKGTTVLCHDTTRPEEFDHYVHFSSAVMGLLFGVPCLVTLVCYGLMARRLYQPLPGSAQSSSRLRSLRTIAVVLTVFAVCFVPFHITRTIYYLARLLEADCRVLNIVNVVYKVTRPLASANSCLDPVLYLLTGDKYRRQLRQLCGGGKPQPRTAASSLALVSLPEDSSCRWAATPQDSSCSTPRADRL", "sequence of UniProt P11607 (whole entry, looked up)": "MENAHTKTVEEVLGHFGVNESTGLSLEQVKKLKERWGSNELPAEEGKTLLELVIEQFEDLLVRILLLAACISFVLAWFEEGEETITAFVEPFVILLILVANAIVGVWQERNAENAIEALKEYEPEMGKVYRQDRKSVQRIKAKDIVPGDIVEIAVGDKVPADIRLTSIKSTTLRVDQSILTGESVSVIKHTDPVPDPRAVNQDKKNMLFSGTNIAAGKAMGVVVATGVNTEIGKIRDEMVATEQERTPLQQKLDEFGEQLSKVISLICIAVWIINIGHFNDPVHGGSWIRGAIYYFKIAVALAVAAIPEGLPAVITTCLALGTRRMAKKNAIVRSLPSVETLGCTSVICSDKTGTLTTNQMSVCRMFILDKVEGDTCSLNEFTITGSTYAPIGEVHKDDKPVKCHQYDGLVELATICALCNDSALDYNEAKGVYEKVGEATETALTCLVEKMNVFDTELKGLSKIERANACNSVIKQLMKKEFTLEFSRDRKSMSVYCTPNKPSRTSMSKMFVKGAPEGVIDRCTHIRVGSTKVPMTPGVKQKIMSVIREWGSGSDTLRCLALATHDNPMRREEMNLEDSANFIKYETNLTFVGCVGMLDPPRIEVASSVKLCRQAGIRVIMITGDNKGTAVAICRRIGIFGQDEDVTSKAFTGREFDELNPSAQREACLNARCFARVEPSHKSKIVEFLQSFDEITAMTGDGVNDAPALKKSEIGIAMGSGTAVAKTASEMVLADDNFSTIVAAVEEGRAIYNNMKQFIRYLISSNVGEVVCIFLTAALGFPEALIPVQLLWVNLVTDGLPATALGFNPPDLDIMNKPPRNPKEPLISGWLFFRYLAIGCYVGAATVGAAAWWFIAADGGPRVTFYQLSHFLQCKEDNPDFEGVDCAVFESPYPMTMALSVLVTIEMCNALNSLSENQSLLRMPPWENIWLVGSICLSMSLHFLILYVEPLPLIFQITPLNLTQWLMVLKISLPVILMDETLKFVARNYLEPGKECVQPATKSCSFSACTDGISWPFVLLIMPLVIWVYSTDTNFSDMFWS", "sequence of UniProt Q8TDU6 (whole entry, looked up)": "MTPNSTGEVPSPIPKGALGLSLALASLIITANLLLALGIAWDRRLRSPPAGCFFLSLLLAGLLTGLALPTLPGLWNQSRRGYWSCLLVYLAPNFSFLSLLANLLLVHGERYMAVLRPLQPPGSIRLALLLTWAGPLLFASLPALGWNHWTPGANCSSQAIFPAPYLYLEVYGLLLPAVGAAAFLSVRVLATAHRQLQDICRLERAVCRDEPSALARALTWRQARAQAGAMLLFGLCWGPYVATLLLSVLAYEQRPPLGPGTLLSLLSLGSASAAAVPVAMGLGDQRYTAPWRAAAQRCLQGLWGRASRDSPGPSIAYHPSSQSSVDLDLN", "sequence of UniProt P11474 (whole entry, looked up)": "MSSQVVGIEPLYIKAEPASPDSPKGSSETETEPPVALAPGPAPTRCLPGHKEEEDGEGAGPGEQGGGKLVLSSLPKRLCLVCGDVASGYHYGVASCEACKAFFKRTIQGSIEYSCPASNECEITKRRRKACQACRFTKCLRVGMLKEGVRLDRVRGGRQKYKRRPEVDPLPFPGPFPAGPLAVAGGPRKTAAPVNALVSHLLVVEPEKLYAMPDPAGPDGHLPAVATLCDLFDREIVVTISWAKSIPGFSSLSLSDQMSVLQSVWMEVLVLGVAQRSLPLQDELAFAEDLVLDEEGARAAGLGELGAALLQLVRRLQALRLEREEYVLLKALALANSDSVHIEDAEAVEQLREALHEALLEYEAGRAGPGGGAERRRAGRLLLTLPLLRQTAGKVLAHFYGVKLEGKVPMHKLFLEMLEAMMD", "sequence of UniProt P28335 (whole entry, looked up)": "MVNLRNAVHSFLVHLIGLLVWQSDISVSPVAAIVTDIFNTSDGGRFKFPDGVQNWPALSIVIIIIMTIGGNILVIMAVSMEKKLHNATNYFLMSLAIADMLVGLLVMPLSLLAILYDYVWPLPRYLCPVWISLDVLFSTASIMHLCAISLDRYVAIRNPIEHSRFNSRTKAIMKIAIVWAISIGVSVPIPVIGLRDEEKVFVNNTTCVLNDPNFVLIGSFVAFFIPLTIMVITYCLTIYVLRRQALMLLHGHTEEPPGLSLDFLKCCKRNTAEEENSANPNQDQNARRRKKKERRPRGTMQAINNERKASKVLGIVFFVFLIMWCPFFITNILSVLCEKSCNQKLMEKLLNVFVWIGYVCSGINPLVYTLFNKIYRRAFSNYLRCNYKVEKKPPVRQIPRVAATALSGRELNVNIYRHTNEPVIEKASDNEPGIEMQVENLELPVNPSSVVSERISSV", "sequence of UniProt Q12809 (whole entry, looked up)": "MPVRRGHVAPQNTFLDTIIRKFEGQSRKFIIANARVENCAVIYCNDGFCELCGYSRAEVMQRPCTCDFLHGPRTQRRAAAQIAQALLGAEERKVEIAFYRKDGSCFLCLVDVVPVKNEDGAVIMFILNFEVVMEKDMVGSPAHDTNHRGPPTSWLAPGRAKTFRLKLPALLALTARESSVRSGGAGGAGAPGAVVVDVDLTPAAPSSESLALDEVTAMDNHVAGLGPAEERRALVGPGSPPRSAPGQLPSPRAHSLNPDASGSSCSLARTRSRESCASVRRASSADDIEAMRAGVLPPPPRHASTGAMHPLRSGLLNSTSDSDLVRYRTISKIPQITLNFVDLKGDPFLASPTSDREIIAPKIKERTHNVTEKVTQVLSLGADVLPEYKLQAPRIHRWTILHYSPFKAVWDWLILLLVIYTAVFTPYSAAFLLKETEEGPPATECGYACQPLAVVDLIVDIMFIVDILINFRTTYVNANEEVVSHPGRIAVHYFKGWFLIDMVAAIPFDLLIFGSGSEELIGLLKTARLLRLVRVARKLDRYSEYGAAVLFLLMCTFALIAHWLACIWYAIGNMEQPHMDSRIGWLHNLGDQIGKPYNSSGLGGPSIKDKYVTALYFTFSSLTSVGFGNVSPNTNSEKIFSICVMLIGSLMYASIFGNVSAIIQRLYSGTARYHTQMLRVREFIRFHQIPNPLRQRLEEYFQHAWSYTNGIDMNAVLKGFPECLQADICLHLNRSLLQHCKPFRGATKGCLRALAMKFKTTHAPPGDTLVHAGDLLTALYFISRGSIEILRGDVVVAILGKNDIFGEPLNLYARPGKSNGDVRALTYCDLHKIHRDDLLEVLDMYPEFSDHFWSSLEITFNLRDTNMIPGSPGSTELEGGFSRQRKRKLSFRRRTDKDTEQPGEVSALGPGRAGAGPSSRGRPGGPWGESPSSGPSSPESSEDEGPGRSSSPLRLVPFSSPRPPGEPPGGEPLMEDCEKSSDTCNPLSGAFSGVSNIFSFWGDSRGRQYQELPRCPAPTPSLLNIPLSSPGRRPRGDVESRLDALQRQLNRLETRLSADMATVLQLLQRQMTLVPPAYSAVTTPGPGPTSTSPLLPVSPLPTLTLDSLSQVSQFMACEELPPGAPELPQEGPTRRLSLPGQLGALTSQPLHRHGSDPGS", "sequence of UniProt Q62007 (whole entry, looked up)": "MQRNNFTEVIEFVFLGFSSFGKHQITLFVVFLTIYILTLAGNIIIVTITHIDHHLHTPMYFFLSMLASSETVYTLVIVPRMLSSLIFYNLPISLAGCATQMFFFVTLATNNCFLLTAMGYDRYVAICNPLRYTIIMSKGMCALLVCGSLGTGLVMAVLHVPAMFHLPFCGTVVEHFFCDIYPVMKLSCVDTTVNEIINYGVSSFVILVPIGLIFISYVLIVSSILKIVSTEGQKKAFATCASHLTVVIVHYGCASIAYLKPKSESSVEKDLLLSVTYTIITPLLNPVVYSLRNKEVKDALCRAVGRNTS"}
{"SMILES": "CCCN(Cc1ccccc1O)C(=O)c1cc(C)c(C)s1", "target": "ATP2A2", "test": "Ca2+-ATPase activity, activator", "test system": "porcine cardiac SR vesicles", "conditions": "maximal Ca2+ activity", "EC50": "6.6 ± 1.8 µM"}
{"SMILES": "CSCC[C@H](NC(=O)[C@H](C)NC(=O)[C@H](Cc1ccc(O)cc1)NC(=O)[C@H](CO)NC(C)=O)C(=O)N[C@@H](CCC(=O)O)C(=O)N[C@@H](Cc1c[nH]cn1)C(=O)N[C@@H](Cc1ccccc1)C(=O)N[C@@H](CCCNC(=N)N)C(=O)N[C@@H](Cc1c[nH]c2ccccc12)C(=O)NCC(=O)N[C@@H](CCCCN)C(=O)N1CCC[C@H]1C(=O)N[C@H](C(N)=O)C(C)C", "target": "Melanocortin receptor 4", "EC50": "0.054 ± 0.04 µM"}
{"SMILES": "CCCN(Cc1ccccc1OC)C(=O)c1scc(C)c1C", "target": "ATP2A2", "test": "Ca2+-ATPase activity, activator", "test system": "porcine cardiac SR vesicles", "conditions": "maximal Ca2+ activity", "EC50": "4.8 ± 0.7 µM"}
{"SMILES": "C[C@H](CCC(=O)N[C@@H](Cc1ccc(O)cc1)C(=O)O)[C@H]1CC[C@H]2[C@@H]3[C@H](O)C[C@@H]4C[C@H](O)CC[C@]4(C)[C@H]3CC[C@]12C", "target": "GPBAR1", "test": "G protein activation, agonist, BRET", "EC50": "88.9 µM"}
{"SMILES": "CO/N=c1/ccn([C@@H]2O[C@H](COP(=O)(O)CP(=O)(O)O)[C@@H](O)[C@H]2O)c(=O)[nH]1", "target": "P2RY4", "test": "PLC activation, agonist", "test system": "1321N1, transfected", "EC50": "> 10 µM"}
{"SMILES": "CSCC[C@H](NC(=O)[C@H](CO)NC(=O)[C@H](Cc1ccc(O)cc1)NC(=O)[C@H](CO)NC(C)=O)C(=O)N[C@@H](CCC(=O)O)C(=O)N[C@@H](Cc1c[nH]cn1)C(=O)N[C@@H](Cc1ccccc1)C(=O)N[C@@H](C)C(=O)N[C@@H](Cc1c[nH]c2ccccc12)C(=O)NCC(=O)N[C@@H](CCCCN)C(=O)N1CCC[C@H]1C(=O)N[C@H](C(N)=O)C(C)C", "target": "Melanocortin receptor 4", "EC50": "11.3 ± 7.33 µM"}
{"SMILES": "Cn1cc(-c2ccc(CN3CCSc4ccccc43)c(F)c2)cn1", "target": "CHRM1", "test": "calcium response, positive allosteric modulator", "test system": "HM1 cells", "conditions": "together with: acetylcholine", "EC50": "> 30 µM"}
{"SMILES": "Nc1nc2ccc(CN[C@@H]3CO[C@H](C(c4ccc(F)cc4)c4ccc(F)cc4)C[C@H]3O)cc2s1", "target": "Voltage-gated inwardly rectifying potassium channel KCNH2 (KCNH2, Homo sapiens, UniProt Q12809)", "test": "thallium flux, inhibitor", "EC50": "14.8 ± 3.31 µM"}
{"SMILES": "BP(=O)(OC[C@H]1O[C@@H](n2cnc3c(N)ncnc32)[C@H](O)[C@@H]1O)OP(=O)(O)OP(=O)(O)OP(=O)(O)OC[C@H]1O[C@@H](n2cnc3c(N)ncnc32)[C@H](O)[C@@H]1O (stereo partly drawn)", "target": "P2RY4", "test": "intracellular calcium rise, agonist", "test system": "1321N1 expressing human P2Y4", "conditions": "37 °C", "EC50": "> 100 µM"}
{"SMILES": "CCCN(Cc1ccccc1OC)C(=O)c1ccc(Br)c(Br)c1", "target": "ATP2A2", "test": "Ca2+-ATPase activity, activator", "test system": "porcine cardiac SR vesicles", "conditions": "maximal Ca2+ activity", "EC50": "0.9 ± 0.4 µM"}
{"SMILES": "Cc1nn(C)c(C)c1-c1ccc(CN2C(=O)C3(CCN(C4CCCC4)C3)c3ccccc32)c(F)c1 (stereo not drawn)", "target": "CHRM1", "test": "acetylcholine response, positive allosteric modulator", "test system": "cell-based", "conditions": "inactive up to 30 µM", "EC50": "> 30 µM"}
{"SMILES": "CCCC[C@H](NC(=O)[C@H](CO)NC(=O)[C@H](Cc1ccc(O)cc1)NC(=O)[C@H](C)NC(C)=O)C(=O)N[C@@H](CCC(=O)O)C(=O)N[C@@H](Cc1c[nH]cn1)C(=O)N[C@H](Cc1ccccc1)C(=O)N[C@@H](CCCNC(=N)N)C(=O)N[C@@H](Cc1c[nH]c2ccccc12)C(=O)NCC(=O)N[C@@H](CCCCN)C(=O)N1CCC[C@H]1C(=O)N[C@H](C(N)=O)C(C)C", "target": "Melanocortin receptor 4", "EC50": "0.00017 ± 3e-05 µM"}
{"SMILES": "CCCCCC(O)/C=C/C=O (stereo not drawn)", "target": "Transient receptor potential cation channel subfamily A member 1 (Trpa1, Mus musculus, UniProt Q8BLA8)", "test": "calcium signal, agonist, fluorescence", "EC50": "19.9 µM"}
{"SMILES": "O=c1[nH]c(=O)n([C@@H]2O[C@H](COP(=O)(O)OP(=O)(O)OP(=O)(O)O[C@H]3O[C@H](CO)[C@@H](O)[C@H](O)[C@H]3O)[C@@H](O)[C@H]2O)cc1I", "target": "P2RY4", "test": "PLC activation, agonist", "test system": "1321N1, transfected", "EC50": "> 10 µM"}
{"SMILES": "BP(=O)(OC[C@H]1O[C@@H](n2ccc(=O)[nH]c2=O)[C@H](O)[C@@H]1O)OP(=O)(O)OP(=O)(O)OC[C@H]1O[C@@H](n2ccc(=O)[nH]c2=O)[C@H](O)[C@@H]1O (stereo partly drawn)", "target": "P2RY4", "test": "intracellular calcium rise, agonist", "test system": "1321N1 expressing human P2Y4", "conditions": "37 °C", "EC50": "> 100 µM"}
{"SMILES": "COc1ccccc1CN(C(=O)c1cc(C)c(C)s1)C(C)C", "target": "ATP2A2", "test": "Ca2+-ATPase activity, activator", "test system": "porcine cardiac SR vesicles", "conditions": "maximal Ca2+ activity", "EC50": "4.7 ± 1.1 µM"}
{"SMILES": "O=c1ccn([C@@H]2O[C@H](COP(=O)(O)OP(=O)(O)OP(=O)(O)O[C@H]3O[C@H](CO)[C@@H](O)[C@H](O)[C@H]3O)[C@@H](O)[C@H]2O)c(=O)[nH]1", "target": "P2RY4", "test": "PLC activation, agonist", "test system": "1321N1, transfected", "EC50": "> 10 µM"}
{"SMILES": "CC(C)(O)CCCC1=CCC(C=O)CC1 (stereo not drawn)", "target": "Or10j5 (Mus musculus, UniProt Q62007)", "test": "ion current, agonist, patch clamp", "EC50": "0.6 µM"}
{"SMILES": "CSCC[C@H](NC(=O)[C@H](CO)NC(=O)[C@H](Cc1ccc(O)cc1)NC(=O)[C@H](CO)NC(C)=O)C(=O)N[C@@H](CCC(=O)O)C(=O)N[C@@H](C)C(=O)N[C@@H](Cc1ccccc1)C(=O)N[C@@H](CCCNC(=N)N)C(=O)N[C@@H](Cc1c[nH]c2ccccc12)C(=O)NCC(=O)N[C@@H](CCCCN)C(=O)N1CCC[C@H]1C(=O)N[C@H](C(N)=O)C(C)C", "target": "Melanocortin receptor 4", "EC50": "2.75 ± 0.73 µM"}
{"SMILES": "Cc1cc(C2=C(c3ccccc3)C3CC(S(=O)(=O)Oc4ccc(O)cc4)C2[S+]3[O-])ccc1O (stereo not drawn)", "target": "Estrogen receptor beta (ESR2, Homo sapiens, UniProt Q92731)", "test": "cell-based", "EC50": "> 10 µM"}
{"SMILES": "CC1=NN(CC(=O)Nc2ccc(Br)cc2)C(=O)CC1c1ccccc1 (racemic)", "target": "N-formyl peptide receptor 3 (Homo sapiens, UniProt P25089)", "test": "calcium signal, agonist", "EC50": "0.49 µM"}
{"SMILES": "CCCC[C@H](NC(=O)[C@H](CO)NC(=O)[C@H](Cc1ccc(O)cc1)NC(=O)[C@H](CO)NC(C)=O)C(=O)N[C@@H](CCC(=O)O)C(=O)N[C@@H](Cc1c[nH]cn1)C(=O)N[C@H](Cc1ccccc1)C(=O)N[C@@H](CCCNC(=N)N)C(=O)N[C@@H](Cc1c[nH]c2ccccc12)C(=O)NCC(=O)N[C@@H](C)C(=O)N1CCC[C@H]1C(=O)N[C@H](C(N)=O)C(C)C", "target": "Melanocortin receptor 4", "EC50": "0.00023 ± 3e-05 µM"}
{"SMILES": "Cn1cc(-c2ccc(CN3C(=O)C4(CCN(C5CCCC5)C4)c4ccccc43)c(F)c2)c(C(F)(F)F)n1 (stereo not drawn)", "target": "CHRM1", "test": "acetylcholine response, positive allosteric modulator", "test system": "cell-based", "conditions": "inactive up to 30 µM", "EC50": "> 30 µM"}
{"SMILES": "O=C(NN=Cc1ccc2ccccc2n1)c1ccccc1", "target": "Steroid hormone receptor ERR1 (ESRRA, Homo sapiens, UniProt P11474)", "test": "reporter gene, agonist, luciferase reporter", "test system": "HEK293 transfected", "EC50": "0.487 µM"}
{"SMILES": "Cc1c(C)c2c(c(C)c1O)CCC(C)(C(=O)O)O2 (stereo not drawn)", "target": "cytochrome P450 oxidoreductase", "test": "NADPH-dependent NO consumption, NO electrode", "conditions": "37 °C, together with: NADPH 100 µM, DETA/NO 300 µM", "EC50": "270 µM"}
{"SMILES": "CCCN(Cc1ccccc1OC)C(=O)c1cccs1", "target": "ATP2A2", "test": "Ca2+-ATPase activity, activator", "test system": "porcine cardiac SR vesicles", "conditions": "maximal Ca2+ activity", "EC50": "6.1 ± 1.8 µM"}
{"SMILES": "CC1(C)Cc2cc(Cl)cc(C3CC3CN)c2O1 (racemic)", "target": "5-hydroxytryptamine receptor 2C (HTR2C, Homo sapiens, UniProt P28335)", "test": "calcium signal, agonist, fluorescence", "EC50": "0.6 µM"}
{"SMILES": "CSCC[C@H](NC(=O)[C@H](CO)NC(=O)[C@H](Cc1ccc(O)cc1)NC(=O)[C@H](CO)NC(C)=O)C(=O)N[C@@H](C)C(=O)N[C@@H](Cc1c[nH]cn1)C(=O)N[C@@H](Cc1ccccc1)C(=O)N[C@@H](CCCNC(=N)N)C(=O)N[C@@H](Cc1c[nH]c2ccccc12)C(=O)NCC(=O)N[C@@H](CCCCN)C(=O)N1CCC[C@H]1C(=O)N[C@H](C(N)=O)C(C)C", "target": "Melanocortin receptor 4", "EC50": "0.37 ± 0.025 µM"}
{"SMILES": "CCCCCCCCCC/C=C\\CCCC(OC)C(=O)O (racemic)", "target": "DNA topoisomerase IB (Leishmania donovani, UniProt A0A3Q8IHS4+Q8WQM6)", "test": "DNA relaxation, inhibitor", "conditions": "30 min, 37 °C", "EC50": "41.3 ± 5.6 µM"}
{"SMILES": "CSCC[C@H](NC(=O)[C@H](CO)NC(=O)[C@H](Cc1ccc(O)cc1)NC(=O)[C@H](CO)NC(C)=O)C(=O)N[C@@H](CCC(=O)O)C(=O)N[C@@H](Cc1c[nH]cn1)C(=O)N[C@@H](Cc1ccccc1)C(=O)N[C@@H](CCCNC(=N)N)C(=O)N[C@@H](Cc1c[nH]c2ccccc12)C(=O)NCC(=O)N[C@@H](CCCCN)C(=O)N[C@@H](C)C(=O)N[C@H](C(N)=O)C(C)C", "target": "Melanocortin receptor 4", "EC50": "0.044 ± 0.017 µM"}
{"SMILES": "CC(C)C[C@H](NC(=O)CC[C@@H](C)[C@H]1CC[C@H]2[C@@H]3[C@H](O)C[C@@H]4C[C@H](O)CC[C@]4(C)[C@H]3CC[C@]12C)C(=O)O", "target": "GPBAR1", "test": "G protein activation, agonist, BRET", "EC50": "50.1 µM"}
{"SMILES": "CC(=O)N[C@@H](CO)C(=O)N[C@@H](Cc1ccc(O)cc1)C(=O)N[C@@H](CO)C(=O)N[C@@H](C)C(=O)N[C@@H](CCC(=O)O)C(=O)N[C@@H](Cc1c[nH]cn1)C(=O)N[C@@H](Cc1ccccc1)C(=O)N[C@@H](CCCNC(=N)N)C(=O)N[C@@H](Cc1c[nH]c2ccccc12)C(=O)NCC(=O)N[C@@H](CCCCN)C(=O)N1CCC[C@H]1C(=O)N[C@H](C(N)=O)C(C)C", "target": "Melanocortin receptor 4", "EC50": "0.12 ± 0.033 µM"}
{"SMILES": "C/C=C1/[C@H](O[C@@H]2O[C@H](CO)[C@@H](O)[C@H](O)[C@H]2O)OC=C(C(=O)OC)[C@H]1CC(=O)OCCc1ccc(O)c(O)c1", "target": "human 20S proteasome", "test": "chymotrypsin-like activity, activator", "conditions": "without PA28", "EC50": "> 15 µM"}
{"note": "A few entries again:"}
{"SMILES": "CSCC[C@H](NC(=O)[C@H](CO)NC(=O)[C@H](Cc1ccc(O)cc1)NC(=O)[C@H](CO)NC(C)=O)C(=O)N[C@@H](CCC(=O)O)C(=O)N[C@@H](Cc1c[nH]cn1)C(=O)N[C@@H](Cc1ccccc1)C(=O)N[C@@H](C)C(=O)N[C@@H](Cc1c[nH]c2ccccc12)C(=O)NCC(=O)N[C@@H](CCCCN)C(=O)N1CCC[C@H]1C(=O)N[C@H](C(N)=O)C(C)C", "target": "Melanocortin receptor 4", "EC50": "11.3 ± 7.33 µM"}
{"SMILES": "Cn1cc(-c2ccc(CN3CCSc4ccccc43)c(F)c2)cn1", "target": "CHRM1", "test": "calcium response, positive allosteric modulator", "test system": "HM1 cells", "conditions": "together with: acetylcholine", "EC50": "> 30 µM"}
{"SMILES": "Nc1nc2ccc(CN[C@@H]3CO[C@H](C(c4ccc(F)cc4)c4ccc(F)cc4)C[C@H]3O)cc2s1", "target": "Voltage-gated inwardly rectifying potassium channel KCNH2 (KCNH2, Homo sapiens, UniProt Q12809)", "test": "thallium flux, inhibitor", "EC50": "14.8 ± 3.31 µM"}
